Assay results pooled from the literature.
Numbered parts are unrelated; each lists some results of a single study.

Study 1
Target: Interferon regulatory factor 3, full length, phosphomimetic (IRF3, Homo sapiens, UniProt Q14653, residues 1-427, S386D/S396D/S398D/S402D/T404D/S405D)
Chain of UniProt Q14653 (whole entry, unmodified, looked up): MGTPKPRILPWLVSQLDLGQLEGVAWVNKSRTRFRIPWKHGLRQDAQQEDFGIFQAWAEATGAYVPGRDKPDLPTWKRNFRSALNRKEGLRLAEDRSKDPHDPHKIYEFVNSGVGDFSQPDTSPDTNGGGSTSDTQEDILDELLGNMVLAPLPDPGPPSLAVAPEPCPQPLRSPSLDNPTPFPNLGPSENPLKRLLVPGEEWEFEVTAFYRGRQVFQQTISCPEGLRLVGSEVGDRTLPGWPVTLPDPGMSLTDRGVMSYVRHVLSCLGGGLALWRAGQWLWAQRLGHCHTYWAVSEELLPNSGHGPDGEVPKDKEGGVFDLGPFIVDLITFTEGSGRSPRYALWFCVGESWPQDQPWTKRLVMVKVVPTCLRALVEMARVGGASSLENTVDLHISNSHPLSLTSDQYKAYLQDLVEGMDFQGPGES
Technique: protein-binding microarray
Form: double-stranded DNA, one strand shown
Matrix: in vitro
Tested at: 2540 nM top
Notes: 60-bp whole probe
Added: salmon DNA 0.4 mg/ml
Baseline: random background probes
Reading: higher = stronger binding
Sequence	fitted relative affinity [z-score]
GCCTAGCACTGAGTCTTCCCTTTTAAGTTGTGCTAGGTCTTGATTCGCTTGACGCTGCTG	2.02
GCCTAGCACTTAGGTTTCGGCCTGGGTTAGTGCTAGGTCTTGATTCGCTTGACGCTGCTG	2.49
GCCTAGCACTCAATTTTGTCCTCCCCTACTGTGCTAGTCTTGATTCGCTTGACGCTGCTG	0.147
GCCTAGCACGACGAACCGAGTATCGAGACGTGCTAGGTCTTGATTCGCTTGACGCTGCTG	0.206

Study 2
Target: RNA binding protein fox-1 homolog 2, RRM domain, GST-SBP tag (RBFOX2, Homo sapiens, UniProt O43251-10, residues 100-194)
Technique: RNA Bind-n-Seq
Form: RNA
Matrix: in vitro
Tested at: 365 nM
Notes: natural RNA segment, single round, ends assumed
Baseline: no-protein control
Reading: higher = stronger binding
Residues (chain): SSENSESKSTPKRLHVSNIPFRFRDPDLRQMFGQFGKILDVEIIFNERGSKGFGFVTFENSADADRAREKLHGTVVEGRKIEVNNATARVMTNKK
Sequence	RBNS enrichment (R)
GGGAGUUCUACAGUCCGACGAUCAGAAUACACAAGCAGAGAAGGAUCGGGGUUAUGUCUCUUGGCAGUAGAUCCCAUUCAUACCUCUUCAAACCUAUUUGUUUUUUUUCUUUUGGGACUUAUAUGAUUUUAAAUGGAAUUCUCGGGUGCCAA	0.559
GGGAGUUCUACAGUCCGACGAUCAGUGUUUAAACGCAACAAAAGGCUACAUUUCCAUGGGGCCAGCACUGUCAUGAGCCUCACUAAGCUAUUUUGAAGAUUUUUAAGCACUGAUAAAUUAAAAAAAAAAAAUUUGGAAUUCUCGGGUGCCAA	0.804
GGGAGUUCUACAGUCCGACGAUCGCCCAUGCGCACACCAGACCGCUGUCUUAGUACUGUCACUGUUGUAAAGGCACAUGUUGGAACACAUCCAGUCCUGCUGACCUGUAGAUAAUUAUUUUUCUCUAAAUGAAUGGAAUUCUCGGGUGCCAA	0.274

Study 3
Target: Sal-like protein 4, full length isoform B (SALL4, Homo sapiens, UniProt Q9UJQ4-2, residues 1-616)
Technique: universal PBM
Form: double-stranded DNA, one strand shown
Matrix: in vitro
Tested at: not given
Notes: 8-mer, flanks averaged, mean of replicates
Reading: higher = stronger binding
Residues (chain): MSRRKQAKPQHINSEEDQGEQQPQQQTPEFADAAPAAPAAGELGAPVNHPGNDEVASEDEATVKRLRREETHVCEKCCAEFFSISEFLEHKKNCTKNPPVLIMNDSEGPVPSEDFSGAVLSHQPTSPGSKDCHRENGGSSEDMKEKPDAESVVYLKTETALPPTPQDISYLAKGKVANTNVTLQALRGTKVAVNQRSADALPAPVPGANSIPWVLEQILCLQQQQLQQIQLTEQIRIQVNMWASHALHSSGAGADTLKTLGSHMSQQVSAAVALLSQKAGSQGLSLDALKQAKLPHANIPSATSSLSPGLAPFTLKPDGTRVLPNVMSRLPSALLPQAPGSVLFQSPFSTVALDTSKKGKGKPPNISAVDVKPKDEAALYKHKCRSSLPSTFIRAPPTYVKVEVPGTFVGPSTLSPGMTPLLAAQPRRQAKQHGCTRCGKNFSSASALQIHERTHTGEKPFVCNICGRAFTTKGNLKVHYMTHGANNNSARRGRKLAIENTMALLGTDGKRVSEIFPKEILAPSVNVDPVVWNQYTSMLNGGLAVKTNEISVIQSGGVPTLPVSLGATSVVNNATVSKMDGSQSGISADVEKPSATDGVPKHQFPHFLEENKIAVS
Sequence	E-score
AGCCGCAA	-0.231
ACAGTTAC	0.134
ACGCGATC	-0.0737
AGAGCAGA	0.108
GTGACGAA	-0.11

Further values, each from its own experiment
Molecule	target	test	test system	setting	how to read	quantity	value
PhoQ, residues 284 288 289 292 302 303 SCEHLI	PhoP, residues 12 14 15 18 19 AQALL (Escherichia coli, UniProt P23836)	Sort-seq, measured: YFP reporter	E. coli	PhoQ-PhoP variant library, added: 10 µM Mg2+	baseline: high Mg2+ state, higher = stronger signaling	fold induction	0.662
